Measured values collected from several papers.
Each numbered part is a random draw from the data of one study; scales do not carry over between parts.

Study 1
Target: Histone acetyltransferase KAT6A, both winged helices, GST fusion (KAT6A, Homo sapiens, UniProt Q92794, residues 1-181)
Technique: protein binding microarray
Form: double-stranded DNA, one strand shown
Sample: in vitro
Tested at: not given
Notes: 8-mer, flanks averaged, mean of 2 arrays, mostly near background
Reference: not given
Direction: higher = stronger binding
Construct (chain): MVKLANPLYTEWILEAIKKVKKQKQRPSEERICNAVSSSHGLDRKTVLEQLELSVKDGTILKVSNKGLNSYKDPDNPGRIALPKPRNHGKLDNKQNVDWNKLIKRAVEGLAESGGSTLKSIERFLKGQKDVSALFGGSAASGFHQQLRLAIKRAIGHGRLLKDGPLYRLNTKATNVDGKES
With `AAATTCGG` the E-score was 0.0722.
`CTGCCGTC` has an E-score of 0.182.
With `ACGGACAA` the E-score was 0.175.
For `CCCATTCA`, the E-score was -0.248.
With `GAGCGTTA` the E-score was 0.0895.
The E-score of `TCCTGCAA` is reported as -0.172.
`GGCGAGGA` gave an E-score of -0.0466.
For `ATCAACTC`, the E-score was -0.0427.
For `ATCGATCA`, the E-score was -0.0397.
`AAAATCTT` gave an E-score of -0.0561.
`CAGTGAAC` gave an E-score of -0.121.
`CCTTAACG` has an E-score of 0.0913.
`GAAGCCTA` has an E-score of 0.0415.
For `ACACGCAC`, the E-score was 0.132.
For `TCATAAAA`, the E-score was 0.0312.
With `AGGACGAT` the E-score was -0.00409.

Study 2
Target: Centromere-binding protein 1, full length, N-terminal tag (CBF1, Saccharomyces cerevisiae, UniProt P17106, residues 1-351)
UniProt P17106, sequence (whole entry, looked up): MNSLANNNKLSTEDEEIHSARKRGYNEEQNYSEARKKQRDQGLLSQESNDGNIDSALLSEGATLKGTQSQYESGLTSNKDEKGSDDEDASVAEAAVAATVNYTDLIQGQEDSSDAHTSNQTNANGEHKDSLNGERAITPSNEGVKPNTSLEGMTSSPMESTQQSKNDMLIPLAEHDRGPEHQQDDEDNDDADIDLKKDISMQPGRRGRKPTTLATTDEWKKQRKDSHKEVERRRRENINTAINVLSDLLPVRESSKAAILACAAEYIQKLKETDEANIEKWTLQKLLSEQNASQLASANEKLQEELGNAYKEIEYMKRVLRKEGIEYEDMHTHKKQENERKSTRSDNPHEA
Technique: protein-binding microarray
Form: double-stranded DNA, one strand shown
Sample: in vitro
Tested at: 0.8 µM
Notes: whole 60-bp probe, no competitor
Direction: higher = stronger binding
`CCTAACTACTATATTCAGATCACATAGCTTCGTACAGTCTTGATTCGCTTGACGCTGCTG` has a fluorescence intensity of 570 a.u.
The fluorescence intensity of `CCTAACTACTATACTTTCGTGGGATAGCTTCGTACAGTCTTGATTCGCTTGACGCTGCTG` is reported as 497 a.u.
`GAATCTTTAATGCACGTGATGAAGGCTCGTTTTTAGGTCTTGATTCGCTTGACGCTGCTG` gave a fluorescence intensity of 10800 a.u.
The fluorescence intensity of `GAATTATTCTTCTCTGATGCACGTTCTTTAGACTAGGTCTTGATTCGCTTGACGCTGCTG` is reported as 604 a.u.
`CCTAACTACTATAATGACGTGGAATAGCTTCGTACAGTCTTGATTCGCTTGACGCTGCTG` has a fluorescence intensity of 484 a.u.
`GAATTTCTTTCGCATGTGGTCGCTGTATGAGACTAGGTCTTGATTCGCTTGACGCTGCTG` gave a fluorescence intensity of 1250 a.u.
The fluorescence intensity of `CTATTCTTCTCTGTGCACGTTTTAATGCATGAATTCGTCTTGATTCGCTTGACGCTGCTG` is reported as 699 a.u.
`CTAACCCCTCATTTCCACGGGGTAAAAAAAAAATTCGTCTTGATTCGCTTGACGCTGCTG` gave a fluorescence intensity of 599 a.u.
`GAAATTGCGAGATATCACATGTGCGCTTTCCTTTAGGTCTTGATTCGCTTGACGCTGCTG` gave a fluorescence intensity of 1660 a.u.
`TGTACGAAGCTATATAAGCACGTTATAGTAGTTAGGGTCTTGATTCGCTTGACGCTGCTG` has a fluorescence intensity of 666 a.u.
With `CTAATGCTCTATTATATCGTGATTTAATGACGGTTCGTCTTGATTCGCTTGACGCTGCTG` the fluorescence intensity was 714 a.u.

Study 3
Target: Fragile X messenger ribonucleoprotein 1, C-terminal low-complexity region (Fmr1, Mus musculus, UniProt P35922)
Technique: RNA Bind-n-Seq
Form: RNA
Sample: in vitro
Tested at: 200 nM
Notes: whole 134-nt RNA, ends assumed
With: 150 mM LiCl
Reference: input library
Direction: higher = stronger binding
All molecules: 7-deaza-guanosine replaces G
`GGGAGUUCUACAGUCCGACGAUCUUUUCAAAAUAAGGAGCUUCCCAGACCUGUGUUAGAAGGGCAGCAGUCAGAGAGGACCCCAAAUAAUCGCCCUGAUGCCCCUAAGGAGAAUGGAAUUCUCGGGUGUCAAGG` gave a log2 enrichment of -0.328.
For `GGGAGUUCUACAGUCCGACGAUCUCCUGUGCUACACAUCGUAUGUACCGAAUCGGGGUUUUUGGGGAAAAAGGGGUUUGGGGAAAGUAUUAUGUUACGCCGUUCGGAUCUGCAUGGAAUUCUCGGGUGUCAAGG`, the log2 enrichment was -1.48.
For `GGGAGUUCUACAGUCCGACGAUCUCAAGUCCUGUGCUACACAUCGUAUGUACCGAAUCGGUUUGGAAAAAGGAAAGGAAAGUAUUAUGUUACGCCGUUCGGAUCUGCACUUCCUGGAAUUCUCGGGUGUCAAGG`, the log2 enrichment was -1.06.
`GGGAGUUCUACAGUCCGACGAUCGCAGGAAGUAAAAACAAAUGGAAAUGCUUCGGAUAGUGGCAGGGGUGGGGGUUGCUAAGGAAAGGGUGGGAUGGGAGUGGGUAAAGAGUGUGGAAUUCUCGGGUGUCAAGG` gave a log2 enrichment of 1.21.
For `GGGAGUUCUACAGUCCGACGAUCAAGUCCUGUGCUACACAUCGUAUGUACCGAAUCGGGUUUUGGUUUUGGGUUUUGGGGAAAGUAUUAUGUUACGCCGUUCGGAUCUGCACUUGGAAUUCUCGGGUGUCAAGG`, the log2 enrichment was -1.04.

Study 4
Target: RING finger protein unkempt homolog, zinc fingers 1-6, GST-SBP tag (UNK, Homo sapiens, UniProt Q9C0B0, residues 30-357)
UniProt Q9C0B0, sequence (30-357, looked up): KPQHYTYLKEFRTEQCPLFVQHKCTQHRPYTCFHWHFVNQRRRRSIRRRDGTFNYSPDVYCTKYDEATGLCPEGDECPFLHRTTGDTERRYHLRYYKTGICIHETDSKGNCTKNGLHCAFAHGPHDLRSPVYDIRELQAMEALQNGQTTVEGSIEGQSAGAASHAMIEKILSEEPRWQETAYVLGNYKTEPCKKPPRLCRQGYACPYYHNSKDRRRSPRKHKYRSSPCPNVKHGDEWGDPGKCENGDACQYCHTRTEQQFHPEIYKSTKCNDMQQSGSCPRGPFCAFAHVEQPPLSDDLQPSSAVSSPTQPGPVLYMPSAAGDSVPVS
Technique: RNA Bind-n-Seq
Form: RNA
Sample: in vitro
Tested at: not given
Notes: RNA with constant flanks, human-mouse chimeric sites, ends assumed
Reference: input RNA pool
Direction: higher = stronger binding
`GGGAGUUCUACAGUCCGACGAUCUAAAUUAGCCAGCACCAUUUCUGUUUCUCCCUGGGCUGCAGACAGCUAGAAGAUUUUAUCUAGCUUAUACAAGGCUGCUGGUGUUCCCUCUUUUUUUCCACGAGGGUGUUUUUGGCUGCACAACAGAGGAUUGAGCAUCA` gave a bound/input enrichment of 0.809 ratio.
The bound/input enrichment of `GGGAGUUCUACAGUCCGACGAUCAAAGAACUACUGAGGCAAGGCAGCAAAUUUAGGAGAGAUGUAUCAACACUAUUAAUAGAGUUAGGAUUCCAAAUUAAAAAGAAAACUAAGACAUUAUACAUCAACAAAGCCAAUGUGUGGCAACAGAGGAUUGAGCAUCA` is reported as 3.28 ratio.
The bound/input enrichment of `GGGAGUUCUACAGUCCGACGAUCUACUACUAUGAUGGUGAUAUUGGAAAUUAUUAUUAUGGACAGGGUCAUCCCAUGAAGCCUCAUAGAAUCCGGAUGACUCAUAACUUGCUGCUAAAUUAUGGUUUAUACCGAAAAAUGGAACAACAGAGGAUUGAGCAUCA` is reported as 0.263 ratio.
`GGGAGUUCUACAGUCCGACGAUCGGGACUGAUUCAUCCCAAGGACAGGCCGCCCAGUCUGAUGCCUGGACUGAUGACAGUAUGGAAGGGCCUAGUCAAAAUGUUGAAGCUGAGUCAAUUCAGGAUGCCAUGAGUAUGGAAGAGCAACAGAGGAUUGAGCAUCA` gave a bound/input enrichment of 0.287 ratio.
`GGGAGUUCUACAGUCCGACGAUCGGACAUCUGUCAAAUUGUUAUGUUCCUAAAAACGUAGUGAACACUCUGAUACACUUCAUCUGCUUGUACAUCUGUAUGAUAGAGAAACAGAAAUCUAUUAAUCCAAGCAAUGUGUCACUUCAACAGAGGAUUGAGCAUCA` gave a bound/input enrichment of 0.119 ratio.
For `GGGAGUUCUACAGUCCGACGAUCCUUUUUAAGAAGAUAUGUGAUGGGAUCUUUUAUACCCCUCAAUAUUUAAACCCUUCAGUAAUCAGCCUUUUGAAACAUAUGCUGCAGGUGGAUCCCAUGAAGAGGGCCGCAAUAAAAGAUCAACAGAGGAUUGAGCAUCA`, the bound/input enrichment was 0.233 ratio.
`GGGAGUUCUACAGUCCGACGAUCGUAUACGGUUAUCGAGGAAAGGACUGUAGAGCGAAUGUAUACCUGCUUCCCACAGGGGAGAUAGUUUAUUUUAUCGCAUCAGUAGUAGUCCUGUUUAAUUAUGAGGAGAGAACUCAGCGACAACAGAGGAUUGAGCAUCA` has a bound/input enrichment of 9.87 ratio.

Study 5
Target: Hepatocyte nuclear factor 3-alpha (Foxa1, Mus musculus, UniProt P35582, residues 1-468, full length assumed)
UniProt P35582, sequence (whole entry, looked up): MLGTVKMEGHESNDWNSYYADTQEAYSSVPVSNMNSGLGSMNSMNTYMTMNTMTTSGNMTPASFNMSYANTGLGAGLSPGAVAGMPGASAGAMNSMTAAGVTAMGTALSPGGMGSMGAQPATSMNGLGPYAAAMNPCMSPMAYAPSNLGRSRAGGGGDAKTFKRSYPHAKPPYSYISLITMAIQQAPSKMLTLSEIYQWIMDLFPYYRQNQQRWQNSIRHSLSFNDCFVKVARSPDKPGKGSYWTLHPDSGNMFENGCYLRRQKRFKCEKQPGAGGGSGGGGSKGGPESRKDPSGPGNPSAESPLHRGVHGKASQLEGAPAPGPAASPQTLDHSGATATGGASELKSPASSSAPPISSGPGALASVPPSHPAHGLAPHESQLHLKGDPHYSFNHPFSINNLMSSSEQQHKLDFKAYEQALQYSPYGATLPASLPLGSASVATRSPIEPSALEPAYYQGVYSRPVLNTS
Technique: EMSA with sequencing
Form: double-stranded DNA, one strand shown
Sample: in vitro
Tested at: 10 and 20 nM
Notes: whole designed probe, mean of two concentrations, ends assumed
Reference: negative control set to 0
Direction: higher = stronger binding
`GTGAGCGGTGCCCATTGATGGGGAACCTGTTGAGTGTATGTATACCCTTTCACACACATGTATAAACATATGTGGTGTGTTTGGAAAGATAAATACACTTAAATAGGTACCATCTGCATGTTTACATTACGTAGTATTAGATTGCATACTATATTTTGCTACTTGGCTTTTTAACATGTTGTGGATATCTTGTCAGTAGACTCAATGTATTTCTTTTTTTTTCACTGGGATCGTGGGGAC`: “normalised bound fraction” 0.469 ratio.
Under “normalised bound fraction”, `GTGAGCGGTGCCCATTGATGGGGAACTGCTGGACCCCGGGCATAGGGAGCCCTTGCTGCTTCTCCACCCACCAGTGCTGAGCTCCGGGGGTGTTTGCCTTGCAGGTCCAAGCTGTGAATGTAAACACTGCAATTCCTCTGAAAACTGGCTGGAACCTCCTCCAGGGAGGAAGGGTTGCTCATGGGCAGGGCAGGCTCCCAAACATCATACACAGCAACCTTTCACTGGGATCGTGGGGAC` is recorded as 0.299 ratio.
For `GTGAGCGGTGCCCATTGATGGGGAACTCAAAAAAAGAAAAAGAAAAGCGACGACATTCAGTCAATCAGCCAGATATTTTTGGTGATGCTGCAACTCTTAATGGTATCCTGTCTGGATTCTGTTTATTTAGTTCCTAAGTTGGTAAATACAGTGCCTGTTAATCATTAACCTTTGCCTTGTCATTGACAAAGAGTTCACTTGTCAAGCTGTGAGTGGAACTTTCACTGGGATCGTGGGGAC`, “normalised bound fraction” read 0.429 ratio.

Study 6
Target: PABPC1L2, full length, GST fusion (mouse, UniProt A0ABA7IW68)
Technique: RNAcompete
Form: RNA
Sample: in vitro
Tested at: 20 nM
Notes: 7-mer, probes averaged, single round
Reference: mean of 7-mers
Direction: higher = stronger binding
Residues (chain): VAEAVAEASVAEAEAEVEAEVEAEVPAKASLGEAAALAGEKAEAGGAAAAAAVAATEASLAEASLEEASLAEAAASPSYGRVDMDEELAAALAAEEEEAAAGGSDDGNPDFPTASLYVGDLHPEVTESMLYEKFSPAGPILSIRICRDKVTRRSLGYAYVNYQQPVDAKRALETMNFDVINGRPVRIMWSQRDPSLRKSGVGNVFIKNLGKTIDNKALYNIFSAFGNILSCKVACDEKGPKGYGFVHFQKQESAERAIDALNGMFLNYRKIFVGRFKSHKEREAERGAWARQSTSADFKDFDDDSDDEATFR
For `UCGGUUU`, the 7-mer Z-score was -0.483.
For `ACUCGCA`, the 7-mer Z-score was -0.358.
The 7-mer Z-score of `GUCAAUC` is reported as -0.24.
With `CCAGCAC` the 7-mer Z-score was -0.148.
For `AAGAGAC`, the 7-mer Z-score was 0.367.
With `UUGUAUC` the 7-mer Z-score was -0.307.
For `GGCUCUC`, the 7-mer Z-score was -0.148.
`UGAUCUU` gave a 7-mer Z-score of -0.275.
The 7-mer Z-score of `CUGCGAC` is reported as -0.161.
`GCGCCUA` has a 7-mer Z-score of -0.306.
With `CGUGGGC` the 7-mer Z-score was -0.0301.
For `UGGGGCC`, the 7-mer Z-score was 0.0623.
The 7-mer Z-score of `UGUAUCA` is reported as -0.195.
For `AGGCACA`, the 7-mer Z-score was 0.242.
`CUACUAU` gave a 7-mer Z-score of -0.0989.
The 7-mer Z-score of `UGCACGC` is reported as -0.171.
The 7-mer Z-score of `CGUUGCG` is reported as -0.295.
`UUCACCC` gave a 7-mer Z-score of -0.438.

Further values, each from its own experiment
Technique: cross-linking MS
Notes: hits only
Under interaction screen, `MBD3 (Homo sapiens, UniProt O95983)` is recorded as “cross-linked” (GATAD2A (Homo sapiens, UniProt Q86YP4)).
For `SF3B1 (Homo sapiens, UniProt O75533)`, interaction screen read “cross-linked” (SF3B2 (Homo sapiens, UniProt Q13435)).
